Assay results pooled from the literature.
Every numbered part comes from another study and shows a few of its results, in no order. Substitutions count along the parent as printed.

Series 1 — technique: DHFR PCA, deep sequencing; matrix: yeast; together with: (+)-ABA 710 µM; baseline: wild-type fitted maximum; direction: higher = stronger binding; quantity: relative binding score
Target: ABI1, truncated, D143A, DHFR fusion (Arabidopsis thaliana)
Notes: methotrexate growth selection, single substitutions
Parent: PYL1, truncated, DHFR fusion (Arabidopsis thaliana); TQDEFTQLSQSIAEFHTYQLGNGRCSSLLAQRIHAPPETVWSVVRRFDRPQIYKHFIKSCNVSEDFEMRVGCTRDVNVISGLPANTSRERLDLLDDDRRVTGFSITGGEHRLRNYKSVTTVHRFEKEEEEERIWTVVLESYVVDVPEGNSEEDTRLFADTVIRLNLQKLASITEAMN; partner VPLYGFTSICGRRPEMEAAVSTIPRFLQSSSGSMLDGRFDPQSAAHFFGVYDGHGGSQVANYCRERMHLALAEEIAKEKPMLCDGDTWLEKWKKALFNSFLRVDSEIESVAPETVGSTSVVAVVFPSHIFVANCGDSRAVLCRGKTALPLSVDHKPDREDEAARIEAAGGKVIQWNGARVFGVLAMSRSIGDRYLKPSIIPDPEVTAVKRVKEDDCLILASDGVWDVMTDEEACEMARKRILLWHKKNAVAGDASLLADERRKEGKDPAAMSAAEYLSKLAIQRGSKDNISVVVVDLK
L82M: 100%
L29T: 86%
G108C: 54.6%
E174M: 92.1%
V70T: 93.9%
F47D: -13.5%
A30E: 104%
G148N: 93.2%
L166T: -1.93%
W41Y: 79.3%
S26F: 94.8%
I12M: 97.6%
V121D: 8.77%

Series 2 — target: CCNE2, cyclin fold, Cln2 fusion (human); technique: yeast growth competition, sequencing; matrix: yeast; notes: strong parent motif; baseline: not given; direction: higher = stronger binding; quantity: normalised enrichment score
Parent: PKN2 docking peptide (human); VSAVRKLDFSDTM; partner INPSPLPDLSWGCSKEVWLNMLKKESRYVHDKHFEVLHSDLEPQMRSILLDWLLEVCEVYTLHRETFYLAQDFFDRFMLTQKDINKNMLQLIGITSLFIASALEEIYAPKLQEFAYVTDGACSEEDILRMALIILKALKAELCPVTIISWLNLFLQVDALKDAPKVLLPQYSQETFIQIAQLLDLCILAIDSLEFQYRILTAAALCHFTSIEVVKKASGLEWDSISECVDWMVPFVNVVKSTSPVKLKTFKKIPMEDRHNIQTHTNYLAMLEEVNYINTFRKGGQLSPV
S2A: 3.98
S10L: 3.13
K6W: 2.41
D11W: 4.46
D8Q: 3.48
V4P: 0.581
L7F: 0.0439
F9Q: -0.216
V4Q: 1.52
T12H: 4.61
S10A: 4.24
K6L: 1.47
L7E: -0.181
V4E: 0.0516
F9T: 0.24
D11E: 4.43

Series 3 — target: OGT, full length, His-tagged (human); technique: phage display, sequencing; matrix: in vitro; tested at: 1 µg OGT; baseline: input library; direction: higher = stronger binding; quantity: fold enrichment; parent: peptide; TAPFYPPAYQIQVFK
Notes: single substitutions, 15-mer displayed peptide, unchanged parent 19.6
TAPFYPYAYQIQVFK [P7Y]: 1.93 fold
TAPFYPPAQQIQVFK [Y9Q]: 0.667 fold
TAPAYPPAYQIQVFK [F4A]: 7.32 fold
TAPFYPPAYQIQVYK [F14Y]: 16.1 fold
TAPFYPPAYLIQVFK [Q10L]: 6.26 fold
TAPFYPPAYRIQVFK [Q10R]: 1.51 fold
TAPFYPPAYQIQHFK [V13H]: 4.27 fold
TAPFPPPAYQIQVFK [Y5P]: 1.27 fold
TAPFYPPAYQISVFK [Q12S]: 8.24 fold
TAPFYPPAYQIAVFK [Q12A]: 2.14 fold

Series 4 — technique: RNA Bind-n-Seq; form: RNA; matrix: in vitro; tested at: not given; baseline: input RNA pool; direction: higher = stronger binding; quantity: bound/input enrichment
Target: RING finger protein unkempt homolog, zinc fingers 1-6, GST-SBP tag (UNK, Homo sapiens, UniProt Q9C0B0, residues 30-357)
UniProt Q9C0B0, sequence (30-357, looked up): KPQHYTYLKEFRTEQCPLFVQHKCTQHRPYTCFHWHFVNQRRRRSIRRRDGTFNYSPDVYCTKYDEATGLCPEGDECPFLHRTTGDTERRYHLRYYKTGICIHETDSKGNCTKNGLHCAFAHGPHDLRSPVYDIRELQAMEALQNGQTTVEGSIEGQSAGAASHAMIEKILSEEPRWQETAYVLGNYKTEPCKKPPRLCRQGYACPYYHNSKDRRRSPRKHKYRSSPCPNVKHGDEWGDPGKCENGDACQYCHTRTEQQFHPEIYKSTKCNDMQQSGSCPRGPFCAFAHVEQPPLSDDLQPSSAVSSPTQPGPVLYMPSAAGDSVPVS
Notes: RNA with constant flanks, human and mouse sites, ends assumed
All sequences stand within: GGGAGUUCUACAGUCCGACGAUC … CAACAGAGGAUUGAGCAUCA
CGGAAUGAAGUUGUCGGUUUAAUUUUCCGUUUAACAAUAUUUGGUGCAGUAACGUACUUCACUAUUAAAUGGAUGGUAGAUGCCAUUGACCCCACCAGGAAGCAGAAGGUAGAAGCUCAG: 0.351 ratio
CUGAAUAGCAAUAAAUAUUUUCCCAGCAGGGUUAGCAUAAAAGAAUCAUCUGUAGCAAAACUAGGAUCAGUGUGCCGUAGGAUUUAUAGAAUAUUUUCACAUGCCUAUUUUCAUCACCGG: 34 ratio
UGGACAAACCAUAAAUUCAAUGUGUCUGCCACUCCAGAGCAAUACGUUCCUUAUUCCACCACUAGAAAGAAGAUUCAUGAAUGGGUUCCACCUUCGACACCUUACAAGUGACCGCAGUGA: 0.495 ratio
CGUGGAUUUAUCGCUGCCACGGUCUGCGUAGCUCCAGAGGUUUAACCAUAGGAUAGAGAAACCAGGAAUGUAAUGAGGAAAUCAAAAUGGAUCCAAGUAUGGGUGUGAAUUCUGUUACCA: 1.58 ratio
CCAAGAAUUCCAAACAUGCCUGACAAUCUUGUCCCCUUAUUGUAAUAAAGAGGGAUACCAUCAGUCUAGAUUUUAUUGAGAAUCCUUAAGAUUUAAAGCAUAGCUGUGGAUGUGGUGAAG: 0.708 ratio
GCCAGGGGAGUUCUCAAAUGUGACAUCACAGACCUUCAGAUCAUUUGUUCUUUGGGAUAUAGCAUUCUUCUCAUGGUCACAUGUACUGUGUAUGCCAUCAAGACUCGGGGUGUACCAGAG: 0.328 ratio
UCCCAGUCUAUUGUUUGGGUGCAUGCUUUCCCAGAACUGUUUUUGUCUUGCUUAAAUCAUCCGGACAAAAAAAUUGUUGCCUACUCUUCAAUGAUUUUGUUUACAUCCCUUAAUCAUGAA: 0.194 ratio
UCCCCUCUGAACCCCAUAUCUUCUGUUUCAUAAUGCAGAAGUAUUCUUUUCAAUUAUAUUGUUAGUGGACUUGUUUUAAUUUUAGAGAAACUUUGAGUACAGAUACUGUGAGCUUACAUU: 17.3 ratio
UUGUGCUGAUUUUUGGUGAUCAGACCUCAGCUCCCUUAAUACUGCCCUUUUUCCUUUAAGAGAUUUCAUGUGUGCACAGAGAGGCCACCCUUUUCAGGACUGUGCAUUUUCAGGUUUGUG: 0.195 ratio
CUGCCUGCCCCUCGGAGACCAAAGGUUAACAGCAUCUUGAAUCUCUUUGGAUCAUGGUUAUUUGAUGCAGCAUUUGUUCACUGUAAACUUCAUAAUGGGAUAAACAGAGACAGCAGCAUG: 0.453 ratio
AAAGAAAGCCCAGCUGUUGCAGAAACCUCAGCUACAAGUGAGGACCUCAGUUUGAAAUGCUGUUCUUCUGAUACCAAUGGCUCUCCUUUGGCCAAUAUAUCCAAAAGUGGGAAAGGAGAG: 0.1 ratio

Series 5 — technique: universal PBM; form: double-stranded DNA, one strand shown; matrix: in vitro; tested at: 600 nM; direction: higher = stronger binding; quantity: E-score
Target: Sal-like protein 4, full length isoform A (SALL4, Homo sapiens, UniProt Q9UJQ4, residues 1-1053)
UniProt Q9UJQ4, sequence (whole entry, looked up): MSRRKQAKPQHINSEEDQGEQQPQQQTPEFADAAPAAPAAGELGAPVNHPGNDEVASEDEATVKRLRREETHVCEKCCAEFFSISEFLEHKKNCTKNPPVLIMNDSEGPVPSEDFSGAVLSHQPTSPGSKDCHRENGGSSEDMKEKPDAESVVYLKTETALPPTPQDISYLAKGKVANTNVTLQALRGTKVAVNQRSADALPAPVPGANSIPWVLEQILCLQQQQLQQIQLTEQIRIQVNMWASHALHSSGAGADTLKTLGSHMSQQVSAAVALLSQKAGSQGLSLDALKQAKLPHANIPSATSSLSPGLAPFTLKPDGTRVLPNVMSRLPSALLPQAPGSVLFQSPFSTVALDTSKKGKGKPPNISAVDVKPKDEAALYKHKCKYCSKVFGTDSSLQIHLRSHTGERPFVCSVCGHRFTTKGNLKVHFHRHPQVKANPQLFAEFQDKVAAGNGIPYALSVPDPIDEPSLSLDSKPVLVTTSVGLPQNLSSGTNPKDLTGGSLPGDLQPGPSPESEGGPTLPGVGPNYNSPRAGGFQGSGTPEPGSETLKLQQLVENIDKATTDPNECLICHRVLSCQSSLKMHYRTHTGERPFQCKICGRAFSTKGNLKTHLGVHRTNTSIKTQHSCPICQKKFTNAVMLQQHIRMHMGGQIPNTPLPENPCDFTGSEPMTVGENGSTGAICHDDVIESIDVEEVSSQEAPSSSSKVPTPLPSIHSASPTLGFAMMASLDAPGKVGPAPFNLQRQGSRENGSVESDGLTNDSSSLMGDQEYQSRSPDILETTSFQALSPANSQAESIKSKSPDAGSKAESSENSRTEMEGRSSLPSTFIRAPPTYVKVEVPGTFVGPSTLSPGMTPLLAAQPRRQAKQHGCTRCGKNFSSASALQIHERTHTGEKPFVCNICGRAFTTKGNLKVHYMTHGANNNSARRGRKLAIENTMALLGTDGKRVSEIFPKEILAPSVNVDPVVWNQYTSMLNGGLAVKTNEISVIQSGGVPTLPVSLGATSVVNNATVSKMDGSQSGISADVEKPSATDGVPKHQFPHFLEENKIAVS
Notes: 8-mer, flanks averaged, mean of replicates
ATCCTTCA: 0.132
CGCCGATC: -0.2
ACCATGCA: -0.0704
AGAATGAA: 0.26
ACTCGCAC: -0.235
AGGTGAAG: -0.0231
AATGGCCT: -0.00758
CCTAGATC: -0.0943
CACACCCG: -0.222
GACAGTTA: 0.0863
AAGTGCGA: -0.183
CTTTCTAA: 0.152
AAAGATAC: 0.0641
GCGAGGTA: -0.103
AGAACAGG: -0.148
CAAGATCC: -0.0467
AAAAGCTG: 0.0362
GAGGGGAA: -0.147
CCGTCACG: -0.262
ATTACCGC: 0.163
TCTCAACA: 0.158
ACCTACGG: -0.363
GTACGATA: 0.293

Mixed results
CYFIP2 (Homo sapiens, UniProt Q96F07) — interaction screen (NCKAP1 (Homo sapiens, UniProt Q9Y2A7); cross-linking MS; hits only): cross-linked
PhoQ, residues 284 288 289 292 302 303 ALVSVA — fold induction (PhoP, residues 12 14 15 18 19 NFCKL (Escherichia coli, UniProt P23836); Sort-seq, measured: YFP reporter; E. coli; PhoQ-PhoP variant library, together with: 10 µM Mg2+; baseline: high Mg2+ state, higher = stronger signaling): 1.17
ACAD9 (Homo sapiens, UniProt Q9H845) — interaction screen (NDUFAF1 (Homo sapiens, UniProt Q9Y375); cross-linking MS; hits only): cross-linked
NSL1 (Homo sapiens, UniProt Q96IY1) — interaction screen (DSN1 (Homo sapiens, UniProt Q9H410); cross-linking MS; hits only): cross-linked
FLOT1 (Homo sapiens, UniProt O75955) — interaction screen (FLOT2 (Homo sapiens, UniProt Q14254); cross-linking MS; hits only): cross-linked

Repeated from above (series 2):
V4Q: 1.52
T12H: 4.61
S10A: 4.24
K6L: 1.47
L7E: -0.181
V4E: 0.0516
